Experimental data of several laboratories.
Protocols differ between the studies behind these lines. ± marks the error that the study gave.

SMILES | assay | test system | setting | how to read | measurement | result
CCc1c2c(nc3ccc(O)cc13)-c1cc3c(c(=O)n1C2)COC(=O)[C@]3(O)CC | – | human patients, plasma | intravenous, 24 mg/m^2 of parent drug | – | Tmax | 58.8 min
[11CH3]c1ccc2nc(C3CCC3)n(-c3ccc4[nH]ncc4c3)c2n1 | radio-HPLC | Sprague-Dawley rat, brain | 30 min | – | intact parent fraction | 92%
CN[C@@H]1[C@H](O)[C@H](NC)[C@H]2O[C@]3(O)[C@H](O[C@@H]2[C@H]1O)O[C@H](C)C[C@@]3(O)CNCCc1nccs1 | – | male BALB/c mouse, plasma | intravenous, 10 mg/kg | – | C0 | 19300 ng/mL
OCc1cn(Cc2ccc(-c3noc(-c4ccc(OCC[18F])c(C(F)(F)F)c4)n3)cc2)nn1 | – | Lewis rat female, brain stem | intravenous, 5 min | – | brain uptake | 0.5 %ID/g
COCCOCCOCCOCCOCCOCCOCCOCCC(=O)NCCCc1cc2cc3nc(cc4[nH]c(cc5nc(c(OC)c1[nH]2)C(=O)C5(C)C)cc4CCc1ccc(C(=O)O)cc1)CC3(C)C | – | water with 5% DMF | room temperature | – | kic^−1 | 6 ns
COc1cc2c(cc1OC)[C@H]1C[C@H](O)[C@H](CC(C)C(=O)O)CN1CC2 (relative stereo) | – | healthy human male, plasma | oral, 25 mg, geometric mean | – | AUC(0-inf) metabolite share of plasma radioactivity | 1.5%
COc1cccc(C=NCCCN(C)CCN(C)CCCN=Cc2cccc(OC)c2[O-])c1[O-].[67Ga+3] | – | rat | intravenous, 2 h | baseline: heart over liver | tissue uptake ratio | 39 ± 3
C#CCOc1ccc(/C=C2\SC(=O)N(CC(=O)NCc3ccccc3)C2=O)cc1 | inverse Kirkwood-Buff integrals | binary solvent mixture | 298.15 K, mole fraction x1 0.65 | – | Kirkwood-Buff integral G1,3 | -260 cm³/mol
Cc1cc2c(cc1C1(c3ncc(C(=O)O)cn3)CC1)C(C)(C)CCC2(C)C | – | Sprague-Dawley rat, male | oral, 100 mg/kg, 24 h, sesame oil vehicle | – | blood triglycerides | 158 ± 46.5 mg/dL
O=C(O)c1cccc(S(=O)(=O)Nc2ccccc2)c1 | – | human, mild liver dysfunction, plasma | intravenous, 400 mg/m^2 belinostat, cycle 1 day -7, geometric mean | baseline: metabolite over belinostat | AUC(0-inf) metabolic ratio | 1.01
COc1ccnc(C[S+]([O-])c2nc3cc(-n4cccc4)ccc3[nH]2)c1C (stereo not drawn) | – | male Sprague Dawley rats, plasma | oral, 10 mg/kg of ilaprazole racemate | – | Vz/F | 16.6 ± 13.7 L/kg
Cc1cc(O)cc(O)c1C(=O)c1c2c3c(c(O)cc(C)c3oc1=O)C(=O)c1c(O)cc(O)cc1-2 | – | Caco-2 | 50 µM, 3 h, pH 7.4 | – | Papp B→A | 0.138 ×10⁻⁶ cm/s
Cn1c(=O)oc2ccc(-c3ccc(CC(C#N)NC(=O)C4CNCCCO4)c(F)c3)cc21 (stereo not drawn) | – | human volunteers, plasma | 40 mg single dose, fasted, geometric mean | – | AUC(0-inf) | 3590 ng·h/mL
O=c1[nH]c(N2CCC3(CC2)CN(CCO)c2cc(F)cc(F)c23)nc2c1CCCC2 | – | NOD-SCID mouse, xenograft | intraperitoneal, 100 and 300 mg/kg daily | – | body weight and behaviour | no effect
O=C(CCc1ccc(CNC(C(=O)OC2CCCC2)C2CCCCC2)cn1)NO (stereo not drawn) | – | human, plasma | oral, 50 mg, single dose, median | – | Tmax | 30 min
N=C(N)NCCC[C@@H]1NC(=O)[C@H](Cc2c[nH]c3ccccc23)NC(=O)[C@@H](CC2CCCCC2)NC(=O)[C@@H]2CCCN2C(=O)[C@@H](NC(=O)CCc2ccccc2)CCCNC1=O | – | C57BL/6J mice, plasma | intraperitoneal, 1 mg/kg, two-compartment model | – | absorption rate constant | 4.3 h⁻¹
O=C1OC2(c3ccccc31)c1cc(I)c(O)c(I)c1Oc1c2cc(I)c(O)c1I | – | female C57BL/6 mouse, plasma | oral, 100 mg/kg | – | CL/F | 1930 mL/min/kg

SMILES | assay | test system | setting | how to read | measurement | result
C#CCN(CCCNC(=O)CCCCC[N+]1=C(/C=C/C2=C(Cl)C(=C/C=C3\N(CCCCCC(=O)[O-])c4ccccc4C3(C)C)/CCC2)C(C)(C)c2ccccc21)CCCOc1ccc(Cl)cc1Cl | – | processed mouse plasma | 1 µg/mL nominal, 4 h, in autosampler | – | concentration | 1 ± 0.09 µg/mL
C[Si](C)(C)C[C@H](CN)CC(=O)O | – | Sprague-Dawley rat, male, brain | oral, 100 mg/kg, estimated as Cmax x Kp | – | brain Cmax | 25 µM
O=c1nc(NO)ccn1[C@@H]1O[C@H](CO)[C@@H](O)[C@H]1O | RT-PCR, refers to: CYP2D3 | rat, arthritis model, liver | oral, 80 mg/kg twice daily, 5 days | baseline: untreated arthritic rats | mRNA level | 0.9 fold
Brc1ccc(Nc2nc(NN=Cc3c[nH]c4ccccc34)nc(N3CCOCC3)n2)cc1 | – | rat liver microsomes | in vivo extrapolated | – | hepatic clearance | 8.55 mL/min
COc1ccc(-c2csc(N/N=C(\C)c3cc(O)cc(O)c3)n2)cc1 | LC-MS/MS | rat plasma | 3.75 ng/mL, 5 h, 25 °C, bench-top storage | – | concentration change | 9.07%
CC(C)c1cnc(-c2cc(Cl)ccc2F)cc1Nc1ccncc1C(=O)NC(CO)CO | monotherapy, refers to: vomiting | human patients | oral, dose not given, grade 3, phase I A | – | patients with treatment-related adverse event | 0%
CC[C@H](C)[C@H](NC(=O)[C@H](CC(C)C)NC(=O)[C@H](Cc1c[nH]c2ccccc12)NC(=O)[C@H](C)NC(=O)[C@@H](NC(=O)[C@H](Cc1ccccc1)NC(=O)[C@H](CC(=O)O)NC(=O)[C@H](CCCNC(=N)N)NC(=O)[C@H](C)NC(=O)[C@H](C)NC(=O)[C@H](CC(C)C)NC(=O)[C@H](C)NC(=O)[C@H](CC(=O)O)NC(=O)[C@H](CC(C)C)NC(=O)[C@@H](NC(=O)[C@@H](NC(=O)[C@H](C)NC(=O)[C@H](CC(C)C)NC(=O)[C@H](CCC(=O)O)NC(=O)[C@H](CO)NC(=O)[C@H](CO)NC(=O)[C@H](Cc1ccccc1)NC(=O)[C@@H](NC(=O)CNC(=O)[C@H](CCC(=O)O)NC(=O)CNC(=O)[C@@H](N)Cc1cnc[nH]1)[C@@H](C)O)[C@@H](C)O)[C@@H](C)CC)[C@@H](C)CC)C(=O)N[C@@H](C)C(=O)N[C@H](C(=O)N[C@@H](CCCCN)C(=O)N[C@H](C(=O)N[C@H](C(=O)N[C@@H](CC(=O)O)C(=O)N[C@@H](CCCCN)C(=O)N[C@@H](CCCCN)C(=O)N[C@@H](CCCCN)C(=O)N[C@@H](CCCCN)C(=O)N[C@@H](CCCCN)C(=O)N[C@@H](CCCCN)C(N)=O)[C@@H](C)O)[C@@H](C)CC)[C@@H](C)O | – | healthy humans, plasma | subcutaneous, 10 mg once weekly, 6 doses, day 36, median | – | tmax | 12.1 h
COC(=O)c1ccc2c(c1)NC(=O)/C2=C(\Nc1ccc2c(c1)CCN2C(=O)CN1CCOCC1)c1ccccc1 | – | Caco-2 | 20 µM, 2 h | – | Papp A→B | 0.04 ×10⁻⁶ cm/s
CC(=O)N[C@H](CCCCN)C(=O)N[C@H](CC(C)C)C(=O)N[C@H](CCCCN)C(=O)N[C@H](CO)C(=O)N[C@H](CC(C)C)C(=O)N[C@H](CC(C)C)C(=O)N[C@H](CCCCN)C(=O)N[C@@H](C(=O)N[C@H](CC(C)C)C(=O)N[C@H](CO)C(=O)N[C@H](CCCCN)C(=O)N[C@H](C)C(=O)N[C@H](CCCCN)C(=O)N[C@H](CCCCN)C(=O)N[C@H](CCCCN)C(=O)N[C@H](CC(C)C)C(=O)N[C@H](CC(C)C)C(=O)N[C@H](CCCCN)C(=O)N[C@@H](C(=O)N[C@H](C)C(=O)N[C@H](CC(C)C)C(=O)N[C@H](CCCCN)C(=O)N[C@H](C)C(=O)N[C@H](CC(C)C)C(=O)N[C@H](CO)C(=O)N[C@H](CCCCN)C(N)=O)[C@H](C)O)[C@H](C)O | circular dichroism | benign buffer | pH 7.0, 5 °C | baseline: 50% trifluoroethanol | helical content | 11%
Cc1ccc(OCC(=O)N(Cc2cccs2)c2ccn[nH]2)cc1 | – | male Sprague-Dawley rat, plasma | oral, 100 mg/kg, single dose | – | half-life | 181 min
Cc1ccc(-c2ccc(-c3cc4sccc4o3)cn2)nc1 | TCSPC | CHCl3 | – | – | radiative decay rate constant | 0.48 ns⁻¹
O=C(/C=C/c1ccc(O)c(O)c1)NCCCCCCCC[P+](c1ccccc1)(c1ccccc1)c1ccccc1 | – | human, adrenal gland | concentration not given | – | bioaccumulation | 61.4%
NC12CNCCNCC(NCc3ccc(CNC(=O)CCCC(=O)NCc4ccc(-c5nncnn5)cc4)cc3)(CNCCNC1)CNCCNC2.[64Cu+2] | OLINDA dosimetry | small intestine | 24 h pretargeting interval, added: huA33-TCO pretargeting | – | mean absorbed dose | 0.042 rad/mCi
CC(C)(O)c1ncc([S@](N)(=O)=NC(=O)Nc2c3c(cc4c2CCC4)CCC3)s1 | – | healthy human, fasted | oral, 300 mg single dose, spray-dried dispersion | – | Cmax | 25600 ng/mL
C=CC(=O)Nc1cc(Nc2nccc(-c3cn(C4CC4)c4ccccc34)n2)c(OC)cc1NC | radio-HPLC, co-eluting peaks pooled | human male, urine | oral, 110 mg, 0 to 96 h, sample holds 4.16% dose | baseline: dose | excreted amount | 0.07%
CCCCCCCC(=O)NCC(=O)N[C@@H](C)C(=O)N[C@H](C(=O)N[C@@H](C)C(=O)N[C@H](C(=O)N[C@@H](CCCCN)C(=O)N[C@@H](CCC(N)=O)C(=O)N[C@H](C(=O)N[C@@H](CCCCN)C(=O)N[C@@H](CCCCN)C(=O)N[C@@H](CC(C)C)C(=O)N[C@@H](Cc1ccccc1)C(=O)N[C@@H](CCCCN)C(=O)N[C@@H](CCCCN)C(=O)N[C@@H](CCCCN)C(=O)NCC(=O)NCC(N)=O)C(C)C)[C@@H](C)CC)[C@@H](C)O | reversed-phase HPLC | C18 column | hydrophobicity | – | acetonitrile at elution | 55%

Excerpt of the above:
SMILES | assay | test system | setting | how to read | measurement | result
C#CCN(CCCNC(=O)CCCCC[N+]1=C(/C=C/C2=C(Cl)C(=C/C=C3\N(CCCCCC(=O)[O-])c4ccccc4C3(C)C)/CCC2)C(C)(C)c2ccccc21)CCCOc1ccc(Cl)cc1Cl | – | processed mouse plasma | 1 µg/mL nominal, 4 h, in autosampler | – | concentration | 1 ± 0.09 µg/mL
C[Si](C)(C)C[C@H](CN)CC(=O)O | – | Sprague-Dawley rat, male, brain | oral, 100 mg/kg, estimated as Cmax x Kp | – | brain Cmax | 25 µM
